Experimental data from different studies.
A part holds a random share of what one study measured.

Study 1
Target: Histone acetyltransferase KAT6A, winged helix 1, GST fusion (KAT6A, Homo sapiens, UniProt Q92794, residues 1-85)
Technique: protein binding microarray
Form: double-stranded DNA, one strand shown
Sample: in vitro
Tested at: not given
Notes: 8-mer, flanks averaged, mean of 2 arrays, mostly near background
Relative to: not given
Reading: higher = stronger binding
Measurement: E-score
Residues (chain): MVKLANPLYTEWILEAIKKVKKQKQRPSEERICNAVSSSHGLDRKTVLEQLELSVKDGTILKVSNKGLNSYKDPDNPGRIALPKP
CATAGTAG: -0.0453
AATGGATC: -0.108
AACACATA: -0.221

Further values, each from its own experiment
ETS1 Y397A: Protein C-ets-1 (ETS1, Homo sapiens, UniProt P14921, residues 1-441, Y397A, full length assumed)
Chain of UniProt P14921 (whole entry, unmodified, looked up): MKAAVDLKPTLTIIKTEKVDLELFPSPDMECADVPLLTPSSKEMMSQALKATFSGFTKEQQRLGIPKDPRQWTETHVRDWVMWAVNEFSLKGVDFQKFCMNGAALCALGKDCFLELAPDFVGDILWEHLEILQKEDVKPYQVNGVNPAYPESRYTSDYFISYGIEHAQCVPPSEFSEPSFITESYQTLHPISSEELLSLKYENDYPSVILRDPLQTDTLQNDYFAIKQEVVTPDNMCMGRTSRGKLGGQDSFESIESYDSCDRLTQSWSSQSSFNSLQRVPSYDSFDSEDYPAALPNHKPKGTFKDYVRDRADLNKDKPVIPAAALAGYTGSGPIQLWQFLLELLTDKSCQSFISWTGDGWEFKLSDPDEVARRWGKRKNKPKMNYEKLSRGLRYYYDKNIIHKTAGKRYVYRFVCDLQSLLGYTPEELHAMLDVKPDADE
IRF5 S451D/S453D/S456D/S462D full length, phosphomimetic: Interferon regulatory factor 5, full length, phosphomimetic (IRF5, Homo sapiens, UniProt Q13568-2, residues 1-514, S451D/S453D/S456D/S462D)
GTATGACA
E-score (ETS1 Y397A; protein-binding microarray; double-stranded DNA, one strand shown, in vitro; not given, k-mer, scored over probes, only values ≥0.25; higher = stronger binding): 0.297

GCCTAGCACGACGAATTCGGGACTGGAGACGTGCTAGTCTTGATTCGCTTGACGCTGCTG
fitted relative affinity (IRF5 S451D/S453D/S456D/S462D full length, phosphomimetic; protein-binding microarray; double-stranded DNA, one strand shown, in vitro; 940 nM top, 60-bp whole probe, together with: salmon DNA 0.4 mg/ml; relative to: random background probes, higher = stronger binding): -0.316 z-score

PhoQ, residues 284 288 289 292 302 303 ALVSVA
fold induction (PhoP, residues 12 14 15 18 19 NQCAL (Escherichia coli, UniProt P23836); Sort-seq, item: YFP reporter; E. coli; PhoQ-PhoP variant library, together with: 10 µM Mg2+; relative to: high Mg2+ state, higher = stronger signaling): 11.4

GCCTAGCACTTAGGTATCGACTTTCGGCTAGTGCTAGTCTTGATTCGCTTGACGCTGCTG
fitted relative affinity (IRF5 S451D/S453D/S456D/S462D full length, phosphomimetic; protein-binding microarray; double-stranded DNA, one strand shown, in vitro; 940 nM top, 60-bp whole probe, together with: salmon DNA 0.4 mg/ml; relative to: random background probes, higher = stronger binding): 5.26 z-score

ATTGTCGG
E-score (ETS1 Y397A; protein-binding microarray; double-stranded DNA, one strand shown, in vitro; not given, k-mer, scored over probes, only values ≥0.25; higher = stronger binding): 0.384

Some of these lines once more (further values, each from its own experiment):
GCCTAGCACGACGAATTCGGGACTGGAGACGTGCTAGTCTTGATTCGCTTGACGCTGCTG
fitted relative affinity (IRF5 S451D/S453D/S456D/S462D full length, phosphomimetic; protein-binding microarray; double-stranded DNA, one strand shown, in vitro; 940 nM top, 60-bp whole probe, together with: salmon DNA 0.4 mg/ml; relative to: random background probes, higher = stronger binding): -0.316 z-score
